Results pooled from the literature.
Each line is one published result; not all experiments were run side by side.
Target: Peroxisome proliferator-activated receptor gamma (PPARG, Homo sapiens, UniProt P37231)
Sequence (P37231 238-503, limits assumed, as in one of the studies): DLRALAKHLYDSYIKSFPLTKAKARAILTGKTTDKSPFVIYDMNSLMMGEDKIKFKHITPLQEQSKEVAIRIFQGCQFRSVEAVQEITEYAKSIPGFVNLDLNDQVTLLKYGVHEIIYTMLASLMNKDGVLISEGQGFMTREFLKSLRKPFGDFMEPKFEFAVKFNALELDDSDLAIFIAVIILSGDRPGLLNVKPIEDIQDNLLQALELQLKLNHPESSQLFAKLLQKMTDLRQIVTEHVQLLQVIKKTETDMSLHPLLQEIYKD

| Structure (SMILES) | test | test system | conditions | how to read | measurement | result |
| --- | --- | --- | --- | --- | --- | --- |
| CCCc1nc2c(C)cc(-c3nc4ccccc4n3C)cc2n1Cc1ccc(-c2ccccc2C(=O)O)cc1 | ITC |  | binary complex no Med1 |  | binding free energy | -7.11 kcal/mol |
| C=C1C(=O)O[C@@H]2C[C@@]3(C)CCCC(=C)[C@@H]3C[C@H]12 | reporter gene, Gal4 hybrid reporter |  | 10 µM | relative to: vehicle | activation | 1.2 fold |
| CC[C@@H](Oc1cccc(CN(CCCOc2ccc(OC)cc2)c2nc3ccccc3o2)c1)C(=O)O | ITC |  | binary complex no Med1 |  | binding free energy | -6.86 kcal/mol |
| CCCCCCCC(=O)c1cc(OC)c(OC)c(OC)c1CC(=O)OCC | reporter gene, Gal4 hybrid reporter |  | 10 µM | relative to: vehicle | activation | 1.69 fold |
| N#Cc1cc2cc(S(N)(=O)=O)ccc2oc1=N | ELISA, measured: PPARγ protein |  | concentration not given | relative to: control | fold change | 1.36 |
| COC(=O)c1cn(C)c2ccc(-c3cccnc3)cc12 | reporter gene, Gal4 hybrid reporter |  | 10 µM | relative to: vehicle | activation | 1.26 fold |
| O=c1[nH]c2ccccc2s1 | reporter gene, agonist, β-lactamase reporter | HEK293-H cells | freely dissolved concentration |  | EC10 | 31.9 µM |
| CSc1ccc(C(=O)/C=C/c2cc(C)c(OC(C)(C)C(=O)O)c(C)c2)cc1 | receptor activation, agonist, cell-based |  |  |  | Emax | 73.4% |
| CC1(C)C=Cc2c(ccc3c2OC[C@@H](c2ccc(O)cc2O)C3)O1 | ITC |  | binary complex no Med1 |  | binding free energy | -7.59 kcal/mol |
| CC(C)(Oc1ccc(Cl)cc1)C(=O)O | reporter gene, agonist, β-lactamase reporter | HEK293-H cells | nominal concentration | relative to: cytotoxicity IC10 over EC10 | specificity ratio | 125 |
| CCCCCCCCC(=O)c1cc(O)c(O)c(O)c1 | reporter gene, Gal4 hybrid reporter |  | 10 µM | relative to: vehicle | activation | 2.68 fold |
| CC(C)(Oc1ccc(CCNC(=O)c2ccc(Cl)cc2)cc1)C(=O)O | reporter gene, agonist, β-lactamase reporter | HEK293-H cells | freely dissolved concentration |  | EC10 | 12.8 µM |
| CCO[C@@H](Cc1ccc(OCCn2c(C)ccc2-c2ccc(SC)cc2)cc1)C(=O)O | receptor activation, agonist, cell-based |  |  |  | Emax | 149% |

For quick reference, copied from above:
| Structure (SMILES) | test | test system | conditions | how to read | measurement | result |
| --- | --- | --- | --- | --- | --- | --- |
| CC(C)(Oc1ccc(CCNC(=O)c2ccc(Cl)cc2)cc1)C(=O)O | reporter gene, agonist, β-lactamase reporter | HEK293-H cells | freely dissolved concentration |  | EC10 | 12.8 µM |
